Results from different studies.
Each numbered part is a random draw from the data of one study; scales do not carry over between parts. Changes are numbered by the printed parent chain.

Sample 1
Target: Fragile X messenger ribonucleoprotein 1, C-terminal low-complexity region (Fmr1, Mus musculus, UniProt P35922)
Method: RNA Bind-n-Seq
Form: RNA
Medium: in vitro
Concentration: 200 nM
Setting: whole 134-nt RNA, ends assumed
With: 150 mM KCl
Relative to: input library
Reading: higher = stronger binding
Constant ends, left off below: GGGAGUUCUACAGUCCGACGAUC … UGGAAUUCUCGGGUGUCAAGG
| Oligonucleotide | log2 enrichment |
| --- | --- |
| ACCAUGCAGGUGGGCAAAUUUGGGAAGUGGGGCAAGGGGGGGAUAGGGAGGGGGGUAACACUUUGGGAACAGGUGGUCCCAGGUCGUUUC | 0.478 |
| CACAGACAACACGCACCCACACAGACACAGAGGGAAGGGGUUGGCAUGGGGACAGGGUGCACAGCAGGGCGGGGUAGGACCCCAGCCCCU | 1.3 |
| CUCAAGUCCUGUGCUACACAUCGUAUGUACCGAAUCGGGAGGGUUUGGGUGGGAAAGUAUUAUGUUACGCCGUUCGGAUCUGCACUUCCA | 1.46 |
| ACCAUGCAGGUGGGCAUCUUUGUGAAGUGGGGCAAGGGGGGGAUAGGGAGGGGGGUAACACUUUGGGAACAGGUGGUCCCAGGUCGUUUC | 1.17 |
| CACAGACAACACGCACCCACACAGACACAGAGGGAAAGGGUUGGGAUGGGGACAGGGUGCACAGCAGGGCGGGGUAGGACCCCAGCCCCU | 1.28 |
| CAAGUCCUGUGCUACACAUCGUAUGUACCGAAUCGGGAAAGGGAGGGUUUUUGGGAAAGUAUUAUGUUACGCCGUUCGGAUCUGCACUUC | 0.81 |
| GUGCUACACAUCGUAUGUACCGAAUCGGGGAAAAAAAGGGGAAAAAAAGGGGUUUUUUUGGGGAAAGUAUUAUGUUACGCCGUUCGGAUC | 0.281 |
| GUCCUGUGCUACACAUCGUAUGUACCGAAUCGGGUUUUUGGGAAAAAGGGAAAAAGGGAAAGUAUUAUGUUACGCCGUUCGGAUCUGCAC | -0.476 |
| GUCCUGUGCUACACAUCGUAUGUACCGAAUCGGGUUUUUGGUUUUUGGGUUUUUGGGGAAAGUAUUAUGUUACGCCGUUCGGAUCUGCAC | -0.194 |
| CAAGUCCUGUGCUACACAUCGUAUGUACCGAAUCGGGGAAAGGGGAAAGGGAAAGGAAAGUAUUAUGUUACGCCGUUCGGAUCUGCACUU | 0.113 |
| AGUCCUGUGCUACACAUCGUAUGUACCGAAUCGGGAAAAAAAGGGAAAGGGUUUGGGAAAGUAUUAUGUUACGCCGUUCGGAUCUGCACU | -0.0628 |
| UUUCUAGCUGGACCAGUCCGGUACGCUCCGGGCCUCACCGAGGAAGUCCCACCCUGCAGGGGAACCGACUCUGGCCGGCCCUAACCCCUC | -0.48 |
| CUGUGCUACACAUCGUAUGUACCGAAUCGGGGUUUUUUGGGUUUUUUGGGGUUUUUUGGGGAAAGUAUUAUGUUACGCCGUUCGGAUCUG | -0.148 |
| UGGAAGGAACGAGCCAGGAAGAGGGACUGGAACCAUCUCAGAAGCCAUGCCCCUCAGGCUGGAACUUGCCCUGUCUCCUCGCAGAUGAGG | -1.6 |

Sample 2
Target: Sal-like protein 4, full length isoform B (SALL4, Homo sapiens, UniProt Q9UJQ4-2, residues 1-616)
Method: universal PBM
Form: double-stranded DNA, one strand shown
Medium: in vitro
Concentration: not given
Setting: 8-mer, flanks averaged, mean of replicates
Reading: higher = stronger binding
| Oligonucleotide | E-score |
| --- | --- |
| GAGACGGA | -0.231 |
| ATTAGCTC | 0.0689 |
| ATTTCATC | 0.287 |
| ACTTCCCT | -0.13 |
| CGGTGACG | -0.0771 |
| CGCGTCGC | -0.281 |
| CACGGACA | -0.153 |
| CCGCTACC | -0.244 |
| ATTCAGGC | -0.0466 |
| AACTCCTT | 0.0365 |
| CCATTAGC | 0.00893 |
| CCTAACAG | -0.0983 |
| CTAGTTGC | -0.0249 |
| CAGTTGCG | -0.15 |

Sample 3
Target: CCNB2, cyclin fold, Cln2 fusion (human)
Method: yeast growth competition, sequencing
Medium: yeast
Setting: weak parent motif
Relative to: not given
Reading: higher = stronger binding
Starting sequence: ORC1 docking peptide (human); PRARKRLELGNLG; partner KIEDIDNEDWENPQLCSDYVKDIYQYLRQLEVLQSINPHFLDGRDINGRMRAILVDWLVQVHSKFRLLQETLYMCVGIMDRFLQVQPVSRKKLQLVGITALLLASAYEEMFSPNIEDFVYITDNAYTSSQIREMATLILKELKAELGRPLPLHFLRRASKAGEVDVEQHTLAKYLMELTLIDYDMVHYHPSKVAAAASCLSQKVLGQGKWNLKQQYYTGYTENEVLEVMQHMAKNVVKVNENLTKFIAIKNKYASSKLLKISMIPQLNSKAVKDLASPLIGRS
| Substitution | normalised enrichment score |
| --- | --- |
| R6H | 0.0844 |
| R6S | 0.344 |
| E8N | 0.909 |
| P1I | 0.253 |
| L9S | 1.08 |

Other studies, line by line
| Substance | target | assay | system | conditions | how to read | measurement | result |
| --- | --- | --- | --- | --- | --- | --- | --- |
| PhoQ, residues 284 288 289 292 302 303 AGHLVA | PhoP, residues 12 14 15 18 19 LQHIR (Escherichia coli, UniProt P23836) | Sort-seq, measured: YFP reporter | E. coli | PhoQ-PhoP variant library, with: 10 µM Mg2+ | relative to: high Mg2+ state, higher = stronger signaling | fold induction | 9.83 |

For quick reference, copied from above (sample 3):
| Substitution | normalised enrichment score |
| --- | --- |
| L9S | 1.08 |
| R6H | 0.0844 |
